Results from different studies.
Numbered parts are unrelated; each lists some results of a single study. “And” joins repeats or separate records; there may be more than shown. Positions count from the first letter of the parent shown.
UniProt Q99986, sequence (whole entry, looked up): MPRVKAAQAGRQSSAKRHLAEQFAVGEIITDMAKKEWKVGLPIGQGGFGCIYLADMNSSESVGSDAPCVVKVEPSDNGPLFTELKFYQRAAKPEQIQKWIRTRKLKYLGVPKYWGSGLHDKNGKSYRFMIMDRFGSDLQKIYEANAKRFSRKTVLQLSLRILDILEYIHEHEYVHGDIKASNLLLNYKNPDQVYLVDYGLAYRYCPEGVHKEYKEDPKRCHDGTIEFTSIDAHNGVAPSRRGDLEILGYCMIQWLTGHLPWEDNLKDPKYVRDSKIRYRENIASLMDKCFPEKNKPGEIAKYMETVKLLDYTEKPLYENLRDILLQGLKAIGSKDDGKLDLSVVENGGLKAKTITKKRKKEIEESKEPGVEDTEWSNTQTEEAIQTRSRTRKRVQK
UniProt Q9P286, sequence (whole entry, looked up): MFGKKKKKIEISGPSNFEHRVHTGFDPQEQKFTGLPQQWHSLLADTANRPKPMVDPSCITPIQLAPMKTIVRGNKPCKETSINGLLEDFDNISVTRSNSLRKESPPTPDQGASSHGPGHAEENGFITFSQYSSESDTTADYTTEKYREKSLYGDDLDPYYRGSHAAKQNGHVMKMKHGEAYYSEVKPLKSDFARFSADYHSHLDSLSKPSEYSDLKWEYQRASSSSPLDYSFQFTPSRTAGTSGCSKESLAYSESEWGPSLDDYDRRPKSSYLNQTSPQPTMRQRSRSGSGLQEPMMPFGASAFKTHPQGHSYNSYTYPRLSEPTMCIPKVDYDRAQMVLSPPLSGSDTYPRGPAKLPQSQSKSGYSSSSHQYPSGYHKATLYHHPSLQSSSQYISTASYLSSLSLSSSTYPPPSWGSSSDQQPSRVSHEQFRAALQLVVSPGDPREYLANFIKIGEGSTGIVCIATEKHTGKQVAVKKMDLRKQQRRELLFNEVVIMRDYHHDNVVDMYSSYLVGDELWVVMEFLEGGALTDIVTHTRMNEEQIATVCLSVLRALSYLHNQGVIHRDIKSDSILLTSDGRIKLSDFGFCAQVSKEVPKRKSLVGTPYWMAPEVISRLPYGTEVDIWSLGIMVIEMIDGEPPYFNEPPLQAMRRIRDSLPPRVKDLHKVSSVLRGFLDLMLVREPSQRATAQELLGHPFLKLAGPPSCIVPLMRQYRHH
UniProt O43781, sequence (whole entry, looked up): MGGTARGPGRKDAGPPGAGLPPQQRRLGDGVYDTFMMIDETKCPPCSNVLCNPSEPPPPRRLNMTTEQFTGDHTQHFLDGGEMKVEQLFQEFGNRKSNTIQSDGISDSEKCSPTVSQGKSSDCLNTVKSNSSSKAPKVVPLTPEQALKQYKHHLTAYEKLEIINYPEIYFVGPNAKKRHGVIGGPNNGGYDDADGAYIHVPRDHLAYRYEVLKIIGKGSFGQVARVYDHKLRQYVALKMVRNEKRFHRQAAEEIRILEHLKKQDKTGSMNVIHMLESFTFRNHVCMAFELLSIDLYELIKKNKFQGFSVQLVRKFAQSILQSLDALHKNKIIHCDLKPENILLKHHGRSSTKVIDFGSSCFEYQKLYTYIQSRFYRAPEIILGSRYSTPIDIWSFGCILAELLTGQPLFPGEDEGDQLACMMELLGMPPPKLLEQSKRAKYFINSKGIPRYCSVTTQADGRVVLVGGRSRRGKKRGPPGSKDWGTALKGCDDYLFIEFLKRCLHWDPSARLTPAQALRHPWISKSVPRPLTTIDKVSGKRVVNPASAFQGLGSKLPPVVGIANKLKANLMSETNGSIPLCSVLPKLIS
UniProt Q9UQM7, sequence (whole entry, looked up): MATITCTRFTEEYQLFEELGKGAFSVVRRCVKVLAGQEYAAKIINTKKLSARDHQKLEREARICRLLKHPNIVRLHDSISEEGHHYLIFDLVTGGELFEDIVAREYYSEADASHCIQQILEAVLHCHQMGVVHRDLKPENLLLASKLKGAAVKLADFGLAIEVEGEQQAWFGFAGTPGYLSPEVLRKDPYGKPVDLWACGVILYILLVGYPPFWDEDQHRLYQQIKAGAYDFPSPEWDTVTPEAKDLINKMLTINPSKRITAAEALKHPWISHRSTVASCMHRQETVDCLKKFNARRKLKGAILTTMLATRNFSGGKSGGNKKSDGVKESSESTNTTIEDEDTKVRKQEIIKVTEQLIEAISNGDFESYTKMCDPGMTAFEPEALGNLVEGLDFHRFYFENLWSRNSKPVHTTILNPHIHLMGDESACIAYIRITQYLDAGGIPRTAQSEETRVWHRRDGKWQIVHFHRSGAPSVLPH

Block 1
Target: CCNA1, cyclin fold, Cln2 fusion (human)
Technique: yeast growth competition, sequencing
Medium: yeast
Setting: strong parent motif
Reference: not given
Reading: higher = stronger binding
Starting sequence: viral docking peptide; YKVKRRLVFGADD; partner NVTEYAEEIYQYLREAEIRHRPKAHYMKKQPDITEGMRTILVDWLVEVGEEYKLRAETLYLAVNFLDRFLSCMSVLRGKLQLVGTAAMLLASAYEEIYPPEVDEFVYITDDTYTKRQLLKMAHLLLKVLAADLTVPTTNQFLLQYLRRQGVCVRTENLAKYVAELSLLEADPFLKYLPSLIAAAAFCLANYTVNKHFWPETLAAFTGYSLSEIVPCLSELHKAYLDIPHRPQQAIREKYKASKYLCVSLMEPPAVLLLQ
| Variant | normalised enrichment score |
| --- | --- |
| YGVKRRLVFGADD [K2G] | 1.6 |
| YKVKRRLVPGADD [F9P] | 0.294 |
| YKVKRALVFGADD [R6A] | 0.631 |
| YKVKRRLVHGADD [F9H] | 0.455 |
| YKVKRRLVFGFDD [A11F] | 1.11 |
| YKCKRRLVFGADD [V3C] | 1.23 |
| YKVTRRLVFGADD [K4T] | 0.182 |
| YKVKRRLDFGADD [V8D] | 2.1 |

Block 2
SMILES: CC(C)(C)c1cc(C=C(C#N)C#N)cc(Br)c1O
Effect on: enzyme activity
Action: inhibitor
Concentration: 0.5 µM
| target | how to read | remaining activity [%] |
| --- | --- | --- |
| PAK5 (Homo sapiens, UniProt Q9P286) | reference: control | 119 |
| VRK1 (Homo sapiens, UniProt Q99986) | – | 86.4 |
| DYRK3 (Homo sapiens, UniProt O43781) | – | 102 |

Block 3
Target: 5-hydroxytryptamine receptor 2A (HTR2A, Homo sapiens, UniProt P28223)
UniProt P28223, sequence (whole entry, looked up): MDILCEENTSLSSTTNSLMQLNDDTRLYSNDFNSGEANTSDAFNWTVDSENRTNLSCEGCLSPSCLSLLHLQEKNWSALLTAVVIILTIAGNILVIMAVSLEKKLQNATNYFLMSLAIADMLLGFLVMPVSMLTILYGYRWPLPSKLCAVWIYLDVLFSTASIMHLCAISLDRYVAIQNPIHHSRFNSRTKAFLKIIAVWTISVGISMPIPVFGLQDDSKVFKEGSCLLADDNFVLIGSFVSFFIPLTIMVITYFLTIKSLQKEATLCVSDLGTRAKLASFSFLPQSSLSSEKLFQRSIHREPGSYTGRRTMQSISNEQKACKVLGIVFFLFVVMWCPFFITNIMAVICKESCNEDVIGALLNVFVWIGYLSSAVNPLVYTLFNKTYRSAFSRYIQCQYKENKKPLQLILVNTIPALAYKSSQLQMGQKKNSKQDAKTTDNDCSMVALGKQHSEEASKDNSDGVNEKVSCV
Effect on: ligand displacement
Concentration: 10 µM
| SMILES | inhibition [%] |
| --- | --- |
| CC(=O)C1=C(C)N(c2cccc(C(F)(F)F)c2)C(=O)N[C@H]1c1ccc(C#N)nc1 | -6.25 |
| CC(=O)N1CCC(c2ccc(C(=O)NC(=N)N)cc2C(F)(F)F)CC1 | -22.7 |
| CO[C@@H](C)c1c(Nc2ccc([C@H](N(C)C(=O)C3CCS(=O)(=O)CC3)C(F)(F)F)cc2)cnc2cc(Cl)nn12 | 2.45 |
| Cn1nc(C(=O)NCc2ccc(C(=O)O)cc2)cc1-c1ccc2[nH]ccc2c1 | 23.6 |
| CN(C)C(=O)Cn1cc(-c2nc(C3(c4ccc(-c5cnc(N)nc5)cc4)CC3)no2)cn1 | -18.1 |
| CN([C@@H]1CCc2c(CC(=O)O)c3ccccc3n2C1)S(=O)(=O)c1ccc(F)cc1 | -6.57 |
| O=C(O)c1cc(-c2ccc(C3CCNCC3)cc2)c2ccc(-c3ccc(C(F)(F)F)cc3)cc2c1 | 29.1 |
| Cc1ncc(-c2cc(Cl)ccc2F)cc1-n1c(=O)n(CC(N)=O)c2ccccc21 | 11.2 |
| O[C@]1(C(F)(F)F)CCCC[C@H]1Nc1ccc(F)cc1 | 69.4 |
| CCCCN(CCCC)C(=O)CN1C[C@@H](c2cc(OC)c3c(c2)OCO3)[C@H](C(=O)O)[C@H]1CC(C)(C)CCC | 7.84 |
| O=C(N[C@H]1CCCCC/C=C\C2C[C@@]2(C(=O)O)NC(=O)[C@@H]2C[C@@H](Oc3ccncc3)CN2C1=O)OC1CCCC1 (stereo partly shown) | -7.7 |
| O=S(=O)(NC1CCC(c2cc(F)ccc2F)(S(=O)(=O)c2ccc(Cl)cc2)CC1)C(F)(F)F (stereo not shown) | 31.2 |
| O=C(NCc1ncc(C(F)(F)F)cc1Cl)c1ccc2c(c1)C1(CCS(=O)(=O)CC1)[C@H](C1CC1)N2S(=O)(=O)c1ccc(F)cc1 | -4.7 |
| O=C(NS(=O)(=O)c1ccc(NCC2CCOCC2)c([N+](=O)[O-])c1)c1ccc(N2CCN(Cc3ccc(C(F)(F)F)cc3-c3ccc(Cl)cc3)CC2)cc1Oc1cnc2[nH]ccc2c1 | 12.5 |
| CC(=O)Nc1ncc(CN2CCC[C@H](Cc3cc(C)nc(C)c3)C2)s1 | -2.94 |
| C[C@@H]1CN(c2cc(-c3nn(C)c4ccc(OC5(C)CC5)cc34)ncn2)C[C@H](C)O1 | 3.31 |
| CC(C)CC(=O)N1CCc2nc(-c3ccc(Br)cc3)nc(N(C)Cc3ccccc3)c2C1 | 3 |
| CN(C)CC#Cc1ccc(OCCCc2sc(N3CCc4cccc(C(=O)Nc5nc6ccccc6s5)c4C3)nc2C(=O)O)c(F)c1 | 40.1 |
| O=C1NC(c2ccccn2)Sc2ccccc21 (stereo not shown) | -12.3 |
| O=C(Nc1cnc(Oc2ccc(F)cc2)nc1)N1CCc2ncccc2[C@@H]1c1ccc(F)cc1 | 8.72 |
| CCS(=O)(=O)c1cc2cc(C[C@](O)(CC(C)(C)c3ccc(F)cc3C(N)=O)C(F)(F)F)[nH]c2cn1 | 12.6 |
| COc1cccc(CNC(=O)c2nc3scc(COCc4ccc(C(=O)O)cc4)c3c(=O)[nH]2)c1 | -19.5 |
| Cc1ccc(-c2cnc([C@@]3(O)CC[C@H](C(=O)O)C(C)(C)C3)s2)cc1Nc1cccc(C(F)(F)F)n1 | 11.2 |
| c1ccc(N2CCN(Cc3nc4ccccc4[nH]3)CC2)nc1 | 2.58 |
| Cn1cc(Cl)c2c(Oc3c(F)cc(Nc4cc(Cl)nc(N)n4)cc3F)ccnc21 | -1.36 |

Block 4
SMILES: CC[C@@H](C)c1nc2cc(Nc3ccnc4ccc(S(=O)(=O)C(C)C)cc34)ccc2s1.Cl
Cell line: L929 RIPK3-/- reexpressing RIPK3 K51A
Technique: CCK-8
| conditions | survival |
| --- | --- |
| 12.5 µM, with: zVAD | 84.3% and 95.7% and 86.3% and 95% and 112% |
| 1.563 µM, with: zVAD | 105% and 85.9% and 91.5% and 104% |
| 1.563 µM | 96.2% and 96% and 97.4% and 99.2% |

Block 5
Species: mouse
Medium: microsomes or S9
Concentration: 2 µM
Time: 0.5 h
| Compound | remaining compound |
| --- | --- |
| CC(N)Cc1ccccc1[S+]([O-])c1ccccc1 (stereo not shown) | 61.1% |
| Cc1c(C(=O)NC(C(=O)O)C(C)C)c2cc(F)ccc2n1CC(C)(C)O (stereo not shown) | > 99% |
| Cc1cc(Cl)cc(C(=O)N[C@H](C)CO)c1NC(=O)c1cc(Br)nn1-c1ncccc1Cl | 74.5% |

Block 6
Organism: Sarcocystis neurona
Effect on: parasite growth
Concentration: 10 µM
Setting: secondary screen
| SMILES | inhibition |
| --- | --- |
| Oc1cc(Cl)ccc1Oc1ccc(Cl)cc1Cl | 20.2% |
| c1ccc2c(c1)Nc1ccccc1S2 | -62.6% |
| C[C@]12CCC(=O)C=C1CC[C@@H]1[C@@H]2CC[C@@]2(C)[C@H]1CC[C@]2(C)O | 11.4% |

Mixed results
| SMILES | target or system | assay | system | conditions | how to read | endpoint | value |
| --- | --- | --- | --- | --- | --- | --- | --- |
| [N-]=[N+]=CC(=O)CC[C@H](N)C(=O)O | – | – | C57BL/6 CES1-/- mouse | intravenous, 1 mg/kg | – | lymphocyte count | 0.48 and 0.69 and 0.57 |
| CC(C)=CCOc1c2occc2cc2ccc(=O)oc12 | A-375 | – | – | 100 µM, 36 h | – | viability | 74.7% |
| CC(=O)N[C@@H](Cc1c[nH]c2ccccc12)C(=O)N[C@@H](CCC(=O)C=[N+]=[N-])C(=O)OC(C)C | – | – | C57BL/6 CES1-/- mouse | intravenous, 1 mg/kg | – | lymphocyte count | 1.96 and 1.69 and 4.18 |
| COc1ccc(CNC(=O)C=Cc2ccc3[nH]cc(CCN(C)C)c3c2)cc1 | mouse MPNST tumor cells | high-content immunofluorescence imaging, measured: nuclear SOX9 | – | 10 µM, 12 h, mean of 2 replicates | reference: DMSO control, higher = more nuclear SOX9 | nuclear SOX9 intensity | 116 % of DMSO |
| C[N+]1(C)[C@@H]2CC[C@H]1CC(OC(=O)C(CO)c1ccccc1)C2 (stereo partly shown) | CAMK2A (Homo sapiens, UniProt Q9UQM7) | enzyme activity, inhibitor | – | 10 µM | – | inhibition | 2% |
| CCN(CC)CCOC(=O)C(O)(c1ccccc1)c1ccccc1 | A-375 | – | – | 100 µM, 36 h | – | viability | 94.3% |
| CN1[C@@H]2C[C@@H](OC(=O)[C@H](CO)c3ccccc3)C[C@H]1[C@@H]1O[C@@H]12 | mouse MPNST tumor cells | high-content immunofluorescence imaging, measured: nuclear SOX9 | – | 10 µM, 12 h, mean of 2 replicates | reference: DMSO control, higher = more nuclear SOX9 | nuclear SOX9 intensity | 103 % of DMSO |
